# Measurements gathered from unrelated publications.
# Compare with care: the assays were run in different laboratories. Changes are numbered by the printed parent chain. ± marks the error that the study gave.
# T1: TFAM/TFB2M 43-245; 21-396 (Homo sapiens); chain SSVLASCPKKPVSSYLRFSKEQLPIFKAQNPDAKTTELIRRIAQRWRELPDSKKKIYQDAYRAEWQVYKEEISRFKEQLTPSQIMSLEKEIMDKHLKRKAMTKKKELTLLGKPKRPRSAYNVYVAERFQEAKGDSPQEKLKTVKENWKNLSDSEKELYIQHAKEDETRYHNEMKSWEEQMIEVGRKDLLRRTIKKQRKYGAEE; chain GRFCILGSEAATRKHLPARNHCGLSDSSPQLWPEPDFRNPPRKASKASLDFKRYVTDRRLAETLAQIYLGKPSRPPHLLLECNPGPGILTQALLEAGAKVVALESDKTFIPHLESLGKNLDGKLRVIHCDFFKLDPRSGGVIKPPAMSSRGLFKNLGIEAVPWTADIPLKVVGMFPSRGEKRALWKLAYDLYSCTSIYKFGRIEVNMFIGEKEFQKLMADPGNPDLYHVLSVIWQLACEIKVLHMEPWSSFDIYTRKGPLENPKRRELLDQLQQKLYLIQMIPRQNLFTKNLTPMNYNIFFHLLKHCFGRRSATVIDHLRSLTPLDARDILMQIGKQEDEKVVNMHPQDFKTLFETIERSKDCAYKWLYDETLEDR
# P1: SCAP (Homo sapiens); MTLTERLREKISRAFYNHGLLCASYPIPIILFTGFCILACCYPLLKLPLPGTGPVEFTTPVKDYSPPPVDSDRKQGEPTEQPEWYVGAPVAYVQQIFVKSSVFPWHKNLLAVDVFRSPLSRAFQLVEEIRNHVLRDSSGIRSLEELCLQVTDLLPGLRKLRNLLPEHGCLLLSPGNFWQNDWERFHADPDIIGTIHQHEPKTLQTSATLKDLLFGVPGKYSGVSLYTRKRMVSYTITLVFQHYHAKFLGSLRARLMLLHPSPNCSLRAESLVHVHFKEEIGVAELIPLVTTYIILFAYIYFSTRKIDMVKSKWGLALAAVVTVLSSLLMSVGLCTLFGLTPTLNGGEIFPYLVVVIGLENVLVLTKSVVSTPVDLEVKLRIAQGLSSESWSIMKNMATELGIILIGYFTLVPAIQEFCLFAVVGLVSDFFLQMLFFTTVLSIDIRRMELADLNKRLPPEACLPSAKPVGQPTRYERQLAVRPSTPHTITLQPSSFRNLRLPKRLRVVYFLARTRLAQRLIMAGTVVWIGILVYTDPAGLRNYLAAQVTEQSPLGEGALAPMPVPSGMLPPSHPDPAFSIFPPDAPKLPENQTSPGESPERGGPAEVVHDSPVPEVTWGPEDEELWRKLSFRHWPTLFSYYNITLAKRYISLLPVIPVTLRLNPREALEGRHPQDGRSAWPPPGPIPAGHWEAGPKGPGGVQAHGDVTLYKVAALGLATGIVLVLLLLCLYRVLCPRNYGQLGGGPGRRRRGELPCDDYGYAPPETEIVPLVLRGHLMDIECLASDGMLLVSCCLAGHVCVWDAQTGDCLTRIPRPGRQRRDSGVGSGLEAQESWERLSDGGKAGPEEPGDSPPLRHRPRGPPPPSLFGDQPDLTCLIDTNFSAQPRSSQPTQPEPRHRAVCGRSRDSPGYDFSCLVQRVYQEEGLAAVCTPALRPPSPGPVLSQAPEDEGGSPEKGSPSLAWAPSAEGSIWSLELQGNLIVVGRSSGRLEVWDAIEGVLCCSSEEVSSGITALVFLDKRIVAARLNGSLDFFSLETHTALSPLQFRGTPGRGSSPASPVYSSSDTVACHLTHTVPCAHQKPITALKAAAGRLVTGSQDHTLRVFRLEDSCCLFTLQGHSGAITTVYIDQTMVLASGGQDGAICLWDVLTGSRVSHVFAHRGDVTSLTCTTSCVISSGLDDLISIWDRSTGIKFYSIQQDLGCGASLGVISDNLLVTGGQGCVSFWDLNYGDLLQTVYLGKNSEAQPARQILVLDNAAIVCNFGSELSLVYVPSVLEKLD
# P2: ITGA2 cytoplasmic domain peptide (Homo sapiens); WKLGFFKRKYEKM; partner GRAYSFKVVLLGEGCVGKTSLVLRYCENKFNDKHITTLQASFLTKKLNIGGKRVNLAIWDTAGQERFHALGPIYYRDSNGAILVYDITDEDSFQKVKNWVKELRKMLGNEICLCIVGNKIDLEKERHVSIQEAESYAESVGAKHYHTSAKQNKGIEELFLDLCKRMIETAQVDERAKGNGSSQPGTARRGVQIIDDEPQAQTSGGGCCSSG
# P3: FUS3 (Saccharomyces cerevisiae); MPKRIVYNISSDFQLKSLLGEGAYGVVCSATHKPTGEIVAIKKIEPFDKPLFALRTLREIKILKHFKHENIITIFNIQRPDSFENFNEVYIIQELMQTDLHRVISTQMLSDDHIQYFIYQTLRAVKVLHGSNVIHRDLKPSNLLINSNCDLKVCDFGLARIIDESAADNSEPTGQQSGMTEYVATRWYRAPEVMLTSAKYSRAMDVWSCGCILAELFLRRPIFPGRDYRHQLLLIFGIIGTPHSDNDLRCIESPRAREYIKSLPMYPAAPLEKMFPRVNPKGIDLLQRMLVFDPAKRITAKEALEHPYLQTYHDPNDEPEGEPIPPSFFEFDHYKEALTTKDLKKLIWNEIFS; partner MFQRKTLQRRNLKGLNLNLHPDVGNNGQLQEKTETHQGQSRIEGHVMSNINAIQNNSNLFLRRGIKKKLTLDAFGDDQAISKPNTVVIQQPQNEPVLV
# Chain of UniProt P11362 (whole entry, looked up): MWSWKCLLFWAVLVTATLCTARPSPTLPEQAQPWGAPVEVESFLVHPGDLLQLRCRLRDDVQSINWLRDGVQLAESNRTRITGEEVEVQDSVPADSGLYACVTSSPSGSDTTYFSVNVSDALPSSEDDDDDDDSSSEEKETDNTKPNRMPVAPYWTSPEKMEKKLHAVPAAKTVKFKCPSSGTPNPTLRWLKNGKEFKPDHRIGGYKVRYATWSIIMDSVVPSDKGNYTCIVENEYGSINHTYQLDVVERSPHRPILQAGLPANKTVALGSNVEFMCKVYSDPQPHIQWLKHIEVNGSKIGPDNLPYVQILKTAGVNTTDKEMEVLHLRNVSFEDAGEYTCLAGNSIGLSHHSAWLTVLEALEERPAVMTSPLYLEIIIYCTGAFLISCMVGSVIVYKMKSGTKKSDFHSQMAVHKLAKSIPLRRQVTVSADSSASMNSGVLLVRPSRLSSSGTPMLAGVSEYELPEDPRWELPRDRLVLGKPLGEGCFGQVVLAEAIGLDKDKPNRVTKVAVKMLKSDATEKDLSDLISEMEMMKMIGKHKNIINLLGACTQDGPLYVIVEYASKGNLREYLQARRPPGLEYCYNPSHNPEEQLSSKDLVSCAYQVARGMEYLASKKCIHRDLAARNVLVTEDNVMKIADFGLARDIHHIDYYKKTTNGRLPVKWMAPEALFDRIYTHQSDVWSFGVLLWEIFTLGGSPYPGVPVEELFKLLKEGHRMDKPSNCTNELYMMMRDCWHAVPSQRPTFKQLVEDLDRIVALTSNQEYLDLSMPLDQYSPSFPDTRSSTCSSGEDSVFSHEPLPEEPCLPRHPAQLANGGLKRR
# Chain of UniProt P93024 (whole entry, looked up): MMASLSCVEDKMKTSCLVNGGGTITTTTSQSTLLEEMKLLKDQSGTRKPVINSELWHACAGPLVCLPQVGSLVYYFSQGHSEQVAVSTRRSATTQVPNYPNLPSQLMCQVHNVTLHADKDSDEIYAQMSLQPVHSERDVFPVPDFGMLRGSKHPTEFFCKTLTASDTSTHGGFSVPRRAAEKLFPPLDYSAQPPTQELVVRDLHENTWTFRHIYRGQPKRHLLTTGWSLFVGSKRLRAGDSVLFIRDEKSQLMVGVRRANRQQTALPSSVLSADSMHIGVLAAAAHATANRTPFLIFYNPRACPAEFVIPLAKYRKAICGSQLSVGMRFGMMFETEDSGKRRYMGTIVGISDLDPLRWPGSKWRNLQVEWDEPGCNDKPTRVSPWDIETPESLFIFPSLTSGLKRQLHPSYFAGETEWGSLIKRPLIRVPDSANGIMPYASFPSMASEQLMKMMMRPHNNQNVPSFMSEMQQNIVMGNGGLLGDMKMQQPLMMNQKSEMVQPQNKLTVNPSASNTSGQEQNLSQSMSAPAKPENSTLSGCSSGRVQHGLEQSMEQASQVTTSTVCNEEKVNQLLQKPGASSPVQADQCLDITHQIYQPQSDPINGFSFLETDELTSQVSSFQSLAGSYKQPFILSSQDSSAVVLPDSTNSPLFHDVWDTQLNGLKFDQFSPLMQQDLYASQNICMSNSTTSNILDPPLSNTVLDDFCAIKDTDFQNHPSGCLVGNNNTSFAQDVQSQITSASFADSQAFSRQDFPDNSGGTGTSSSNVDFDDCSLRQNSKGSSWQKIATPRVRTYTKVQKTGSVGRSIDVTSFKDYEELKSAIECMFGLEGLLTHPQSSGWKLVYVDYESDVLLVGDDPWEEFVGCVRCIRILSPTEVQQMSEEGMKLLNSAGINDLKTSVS
# Chain of UniProt P27694 (whole entry, looked up): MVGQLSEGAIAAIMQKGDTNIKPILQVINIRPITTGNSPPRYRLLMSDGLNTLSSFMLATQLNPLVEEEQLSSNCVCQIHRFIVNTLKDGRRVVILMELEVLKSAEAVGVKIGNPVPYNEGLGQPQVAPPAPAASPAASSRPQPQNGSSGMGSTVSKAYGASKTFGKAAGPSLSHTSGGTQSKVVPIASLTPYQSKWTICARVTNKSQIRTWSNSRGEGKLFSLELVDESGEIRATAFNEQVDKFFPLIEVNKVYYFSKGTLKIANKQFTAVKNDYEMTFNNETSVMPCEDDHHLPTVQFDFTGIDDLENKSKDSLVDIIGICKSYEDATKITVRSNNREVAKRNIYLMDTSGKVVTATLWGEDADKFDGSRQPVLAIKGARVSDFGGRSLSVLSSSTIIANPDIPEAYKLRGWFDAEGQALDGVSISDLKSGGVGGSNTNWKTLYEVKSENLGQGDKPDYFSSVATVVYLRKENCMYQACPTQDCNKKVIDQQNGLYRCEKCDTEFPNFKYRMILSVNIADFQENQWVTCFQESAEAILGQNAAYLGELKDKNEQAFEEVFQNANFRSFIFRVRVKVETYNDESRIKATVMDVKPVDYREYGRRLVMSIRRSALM
Molecule,target or system,assay,system,setting,how to read,endpoint,value
TP53 (Homo sapiens),"RPA1 RPA70N (Homo sapiens, UniProt P27694)",fluorescence polarisation,,read off a plot,,Kd,100 µM
GTATACCTGCAGCTGAGGCGAGCCGTTGGTGTGGATGGCAGGGGCAGGATTCGACTCTAGAGCGCA (ssDNA; stem-loop),"FGFR1 22-376 (Homo sapiens, UniProt P11362)",MST,single-stranded DNA,added: Mg2+ 5 mM,,Kd,1.52 ± 0.47 µM
GAGCTGTATCGTCTTGACTG (dsDNA (Trichomonas vaginalis); 20-mer duplex),"MYB21 40-156 K138A (Trichomonas vaginalis, UniProt Q58HP3)",ITC,"double-stranded DNA, one strand shown",,,Kd,2.03 µM
AGTCTTTTTGGTCTCTGGTCGGTCGACAATCCGTGTG (dsDNA; 5-C6-amino-dT labels),"ARF5 1-390 (Arabidopsis thaliana, UniProt P93024)",smFRET kinetics,"double-stranded DNA, one strand shown",,,Kd,0.015 µM
GAAGATAACGATATTTAAAA (dsDNA (Trichomonas vaginalis); 20-mer duplex),"MYB21 40-156 R87A (Trichomonas vaginalis, UniProt Q58HP3)",ITC,"double-stranded DNA, one strand shown",,,Kd,15.2 µM
TGTGTTAGTTGGGGGGTGACTGTTAAAAGTGCATACCGCCAAAAGATAAAA (dsDNA),"T1, TFAM/TFB2M 43-245; 21-396 (Homo sapiens)",fluorescence anisotropy,"double-stranded DNA, one strand shown",,,Kd,0.00648 µM
P1 V355A,INSIG1 (Homo sapiens),co-IP,,"read off a plot, added: 25-HC",higher = more binding,signal,0.35
P2 L3A G4A,RAB21 residues 15-225 (Homo sapiens),fluorescence polarisation,,,"relative to: unchanged protein, higher = more binding",relative binding,3
GGAUGCCUCCCGAGUGCAUCC (structured RNA),"FKBP3 1-74 (Homo sapiens, UniProt Q00688)",NMR,folded RNA,,,binding,binds
P3 D314A D317A,STE7 residues 1-98 (Saccharomyces cerevisiae),GST pull-down,,,,Kd,> 50 µM
ACACAGACGTACTATCATGACGCATCAGACAAC (ssDNA),"RPA1/RPA2/RPA3 heterotrimer, Cy5 label (Homo sapiens)",FRET titration,,approximate,,Kd,< 0.0001 µM
RNA 1 AGGGUCUCCAUUUUGAAGCAUGC / RNA 2 GCAUGCUUCAAAAUGGAGACCCU (dsRNA 23 bp duplex),"FKBP3 1-224 (Homo sapiens, UniProt Q00688)",EMSA,double-stranded RNA,apparent,,Kd,122 ± 8 µM

# For quick reference, copied from above:
Molecule,target or system,assay,system,setting,how to read,endpoint,value
GGAUGCCUCCCGAGUGCAUCC (structured RNA),"FKBP3 1-74 (Homo sapiens, UniProt Q00688)",NMR,folded RNA,,,binding,binds
